Measurements collected from several papers.
Numbered parts are unrelated; each lists some results of a single study.
UniProt P34969, sequence (whole entry, looked up): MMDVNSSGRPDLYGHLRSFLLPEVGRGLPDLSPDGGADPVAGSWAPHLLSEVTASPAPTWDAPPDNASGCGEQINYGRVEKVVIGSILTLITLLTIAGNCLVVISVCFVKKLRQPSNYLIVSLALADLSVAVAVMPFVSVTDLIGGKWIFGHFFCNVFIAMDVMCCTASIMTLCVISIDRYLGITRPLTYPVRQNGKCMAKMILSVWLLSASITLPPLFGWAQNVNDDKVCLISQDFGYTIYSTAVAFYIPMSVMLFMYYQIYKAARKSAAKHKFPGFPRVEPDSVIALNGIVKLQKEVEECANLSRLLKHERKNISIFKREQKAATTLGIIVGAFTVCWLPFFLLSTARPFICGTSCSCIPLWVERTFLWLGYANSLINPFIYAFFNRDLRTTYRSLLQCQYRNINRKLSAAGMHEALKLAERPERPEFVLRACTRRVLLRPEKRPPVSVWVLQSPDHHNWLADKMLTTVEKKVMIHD

Set 1
Target: HLA class I histocompatibility antigen, C alpha chain, allele C*04:01 (Homo sapiens, UniProt P10321)
Read-out: peptide-MHC binding
Molecule type: peptide
Tested at: concentration not given
Measurement: binding
Molecule = EVFFGLSRY; value = inactive
Molecule = FLNPVIYTF; value = inactive
Molecule = TTFDLTLRR; value = inactive
Molecule = KPIPHRTVL; value = inactive
Molecule = ATYGWNLVK; value = inactive

Set 2
Target: Myc proto-oncogene protein, bHLH-zipper, MAX partner unstated (MYC, Homo sapiens, UniProt P01106, residues 368-449)
UniProt P01106, sequence (368-449, looked up): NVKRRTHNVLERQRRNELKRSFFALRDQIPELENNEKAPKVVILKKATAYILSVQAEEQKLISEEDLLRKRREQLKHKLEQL
Method: protein-binding microarray
Molecule type: double-stranded DNA, one strand shown
Sample: in vitro
Tested at: not given
Setting: k-mer, scored over probes, only values ≥0.25
Reading: higher = stronger binding
Measurement: E-score
Strand = ACATGTGG; value = 0.478
Strand = CGTGTGTC; value = 0.327
Strand = ACACGCGG; value = 0.47
Strand = ACGTGGTC; value = 0.438
Strand = GTGTGGCA; value = 0.324
Strand = ACACGAGC; value = 0.322
Strand = CCTACACG; value = 0.335
Strand = CATGGGAA; value = 0.26

Set 3
Target: Probable WRKY transcription factor 33, N-terminal DNA-binding domain (WRKY33, Arabidopsis thaliana, UniProt Q8S8P5, residues 169-264)
Method: DNA-protein interaction ELISA
Molecule type: double-stranded DNA, one strand shown
Sample: in vitro, bacterial lysate
Tested at: not given
Setting: whole dsDNA probe, crude lysate protein
Baseline: highest signal in screen
Reading: higher = stronger binding
Measurement: relative absorbance
Target sequence (chain): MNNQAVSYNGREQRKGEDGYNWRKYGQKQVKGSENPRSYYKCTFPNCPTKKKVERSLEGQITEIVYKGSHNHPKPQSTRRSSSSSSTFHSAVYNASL
Strand = AAAAAATACATTTGACTTTGGGTTTCAAAA; value = 73.8 % of maximum
Strand = AAAAAACCCATCCTTCGTTCCATCGTAAAA; value = 22.7 % of maximum
Strand = AAAAAATTAATCCATGCTTATGTCTGAAAA; value = 22.7 % of maximum
Strand = AAAAAATTAGACGCTACACTTACGGTAAAA; value = 20.5 % of maximum
Strand = AAAAAACCGCTTACATTGCGTTGTCGAAAA; value = 30.5 % of maximum
Strand = AAAAAACTGGATGCGCTCACCAGTTAAAAA; value = 19.8 % of maximum
Strand = AAAAAACACGCCATTGACACTGGTAAAAAA; value = 21.3 % of maximum
Strand = AAAAAAAGTTCCAGGTCCGATGCTCAAAAA; value = 16.7 % of maximum

Other studies, line by line
Structure (SMILES) = N#CC1(c2ccccn2)CCN(Cc2cc(C(=O)O)c(=O)n3ccccc23)CC1; target = 5-hydroxytryptamine receptor 7 (HTR7, Homo sapiens, UniProt P34969); read-out = binding; method = radioligand binding; measurement = Ki; value = > 10 µM

A few entries again (set 3):
Strand = AAAAAACACGCCATTGACACTGGTAAAAAA; value = 21.3 % of maximum
